Published values of several laboratories.
Compare with care: the assays were run in different laboratories. ± gives the spread as reported.

SMILES | assay | test system | conditions | Tmax [h]
Cc1nc(Nc2ncc(C(=O)Nc3c(C)cccc3Cl)s2)cc(N2CCN(CCO)CC2)n1 |  | Sprague-Dawley rat, female, plasma | intraperitoneal, 5 mg/kg, together with: rosiglitazone co-dosed | 0.62 ± 0.41
Cn1nnc2c(C(N)=O)ncn2c1=O |  | male athymic rat, intracranial U87 glioma, tumour extracellular fluid | oral, 50 mg/kg, recovery-corrected microdialysis, median, together with: before cediranib | 1.5
COc1cccc(-c2n[nH]c(SCc3ccccn3)n2)c1OC |  | Sprague-Dawley rat, both sexes, plasma | oral, diet, 10 mg/kg/day, day 7 | 6
CCN1CCN(c2ccc(Nc3cc(N(C)C(=O)Nc4c(Cl)c(OC)cc(OC)c4Cl)ncn3)cc2)CC1 |  | Crl:WI(Han) rat, juvenile female, plasma | oral gavage, 0.1 mg/kg/day, postnatal day 17 | 1
CCCC[C@H](NC(C)=O)C(=O)N[C@H]1CCC(=O)NC[C@@H](C(=O)N[C@@H](Cc2c[nH]c3ccccc23)C(N)=O)NC(=O)[C@H](CCCNC(=N)N)NC(=O)[C@@H](Cc2ccccc2)NC(=O)[C@H](Cc2c[nH]cn2)NC1=O |  | CD Sprague Dawley rat, female, plasma | subcutaneous, 25.0 mg/kg daily, day 1 | 0.25
Nc1nc(N)c2nc(CNc3ccc(C(=O)N[C@@H](CCC(=O)O)C(=O)O)cc3)cnc2n1 |  | female Lewis rats, plasma | subcutaneous, 500 nmol/kg of parent drug | ~1
CC(C)=CCC[C@](C)(O[C@@H]1O[C@H](CO[C@@H]2O[C@H](CO)[C@@H](O)[C@H](O)[C@H]2O)[C@@H](O)[C@H](O)[C@H]1O)[C@H]1CC[C@]2(C)[C@@H]1[C@H](O)C[C@@H]1[C@@]3(C)CC[C@H](O[C@@H]4O[C@H](CO)[C@@H](O)[C@H](O)[C@H]4O[C@@H]4O[C@H](CO)[C@@H](O)[C@H](O)[C@H]4O)C(C)(C)[C@@H]3CC[C@]12C |  | Sprague Dawley rats, plasma | oral, 100 mg/kg, control group sterile water | 4.4 ± 1.52
C=CC(=O)Nc1cc(Nc2nccc(-c3cn(C)c4ccccc34)n2)c(OC)cc1N(C)CCN(C)C |  | Sprague-Dawley rat, male, plasma | oral, 10 mg/kg, together with: avitinib 30 mg/kg daily for 7 days | 8
O=C(/C=C/c1ccc(O)c2c1[C@H](C(=O)O)[C@@H](c1ccc(O)c(O)c1)O2)O[C@H](Cc1ccc(O)c(O)c1)C(=O)O | UPLC-MS/MS | Wistar rat, microcirculation dysfunction model, plasma | oral, 100 mg/kg Salvia miltiorrhiza stem-leaf extract FS | 1.92 ± 1.63
O=C(O)C[C@H](O)C[C@H](O)/C=C/c1c(C2CC2)nc2ccccc2c1-c1ccc(F)cc1 |  | male Sprague Dawley rat, control, plasma | oral, 2.5 mg/kg, median, together with: vehicle | 0.83
Cc1nc2cccc(OCC(C)(C)C(=O)NC(C)C)c2c(N)c1C(=O)O |  | Sprague-Dawley rat both sexes, plasma | dietary, 100 mg/kg/day, day 7 | 1.5
O=C(/C=C/c1ccc(O)c(O)c1)O[C@H](Cc1ccc(O)c(O)c1)C(=O)O | UPLC-MS/MS | Wistar rat, microcirculation dysfunction model, plasma | oral, 100 mg/kg Salvia miltiorrhiza stem-leaf extract FS | 1
CCc1oc2cc(OC)ccc2c1C(=O)c1cc(Br)c(O)c(Br)c1 |  | male Sprague-Dawley rat, whole blood | oral, 16.3 mg/kg | ~3
CS(=O)(=O)c1ccc(-c2cnc(N)c(-c3ccc(C(F)(F)F)nc3)c2)cc1 |  | Sprague-Dawley rat, pregnant female, plasma | oral, 30 mg/kg/day, gestation day 17 | 8
O=C(O)Cc1ccccc1Nc1c(Cl)cccc1Cl |  | rat, plasma | oral, 10 mg/kg, together with: sesamin 10 mg/kg | 0.09 ± 0.0567
CC(C)=CCC[C@](C)(O[C@@H]1O[C@H](CO)[C@@H](O)[C@H](O)[C@H]1O)[C@H]1CC[C@]2(C)[C@@H]1[C@H](O)C[C@@H]1[C@@]3(C)CC[C@H](O[C@@H]4O[C@H](CO)[C@@H](O)[C@H](O)[C@H]4O[C@@H]4O[C@H](CO)[C@@H](O)[C@H](O)[C@H]4O)C(C)(C)[C@@H]3CC[C@]12C |  | Sprague Dawley rat, male, plasma | oral, 42 mg/kg, frozen ginseng extract | 0.8 ± 0.13
CCN(CC)Cc1cc(Nc2ccnc3cc(Cl)ccc23)ccc1O |  | rat, Wistar, male, plasma | oral, 60 mg/kg, together with: myricetin 5 mg/kg iv | 3.9 ± 1.29
O=C(/C=C/c1ccc(O)c(O)c1/C=C/c1ccc(O)c(O)c1)O[C@H](Cc1ccc(O)c(O)c1)C(=O)O | UPLC-MS/MS | Wistar rat, microcirculation dysfunction model, plasma | oral, 100 mg/kg Salvia miltiorrhiza stem-leaf extract FT | 0.83 ± 0.67
CC(C)=CCC[C@](C)(O[C@@H]1O[C@H](CO)[C@@H](O)[C@H](O)[C@H]1O)[C@H]1CC[C@]2(C)[C@@H]1[C@H](O)C[C@@H]1[C@@]3(C)CC[C@H](O)C(C)(C)[C@@H]3[C@@H](O[C@@H]3O[C@H](CO)[C@@H](O)[C@H](O)[C@H]3O[C@@H]3O[C@@H](C)[C@H](O)[C@@H](O)[C@H]3O)C[C@]12C |  | Sprague Dawley rat, male, plasma | oral, 45 mg/kg, red ginseng extract | 12 ± 2.1
Cc1cc(-c2cc(OC(=O)c3ccccc3)ccc2Cl)cc2nnc(Nc3ccc(OCCN4CCCC4)cc3)nc12 |  | Long Evans rat, retina | topical, 1% | 1
CC(=O)CC(c1ccccc1)c1c(O)c2ccccc2oc1=O (stereo not drawn) |  | Sprague-Dawley rat, plasma | oral, 2 mg/kg | ~3
CC(C)=CCC[C@](C)(O[C@@H]1O[C@H](CO[C@@H]2O[C@H](CO)[C@@H](O)[C@H](O)[C@H]2O)[C@@H](O)[C@H](O)[C@H]1O)[C@H]1CC[C@]2(C)[C@@H]1[C@H](O)C[C@@H]1[C@@]3(C)CC[C@H](O[C@@H]4O[C@H](CO)[C@@H](O)[C@H](O)[C@H]4O[C@@H]4O[C@H](CO)[C@@H](O)[C@H](O)[C@H]4O)C(C)(C)[C@@H]3CC[C@]12C |  | Sprague Dawley rat, male, plasma | oral, 86 mg/kg, mixture of pure ginsenosides | 8 ± 2.2
CCc1cc2c(cc1N1CCC(N3CCOCC3)CC1)C(C)(C)c1[nH]c3cc(C#N)ccc3c1C2=O |  | moderate hepatic impairment patients, plasma, total | oral, 300 mg single dose, fed, median | 6
CC(C)(C)NC(=O)[C@@H]1C[C@@H]2CCCC[C@@H]2CN1C[C@@H](O)[C@H](Cc1ccccc1)NC(=O)[C@H](CC(N)=O)NC(=O)c1ccc2ccccc2n1 |  | rat, plasma | oral, 30 mg/kg | ~4
CC(C)=CCC[C@](C)(O[C@@H]1O[C@H](CO)[C@@H](O)[C@H](O)[C@H]1O)[C@H]1CC[C@]2(C)[C@@H]1[C@H](O)C[C@@H]1[C@@]3(C)CC[C@H](O[C@@H]4O[C@H](CO)[C@@H](O)[C@H](O)[C@H]4O[C@@H]4O[C@H](CO)[C@@H](O)[C@H](O)[C@H]4O)C(C)(C)[C@@H]3CC[C@]12C |  | Sprague-Dawley rat, plasma | oral, 2000 mg/kg ginseng extract, control diet 2 weeks before dosing | 11.2 ± 5.2
CC(C)=CCC[C@](C)(O[C@@H]1O[C@H](CO)[C@@H](O)[C@H](O)[C@H]1O)[C@H]1CC[C@]2(C)[C@@H]1[C@H](O)C[C@@H]1[C@@]3(C)CC[C@H](O)C(C)(C)[C@@H]3[C@@H](O[C@@H]3O[C@H](CO)[C@@H](O)[C@H](O)[C@H]3O)C[C@]12C |  | Sprague Dawley rat, male, plasma | oral, 25 mg/kg, white ginseng extract | 0.08 ± 0.03
O=C(O)/C=C/c1ccc(O)c(O)c1 | UPLC-MS/MS | Wistar rat, microcirculation dysfunction model, plasma | oral, 100 mg/kg Salvia miltiorrhiza stem-leaf extract FS | 0.74 ± 0.42

Repeated from above:
SMILES | assay | test system | conditions | Tmax [h]
CC(C)(C)NC(=O)[C@@H]1C[C@@H]2CCCC[C@@H]2CN1C[C@@H](O)[C@H](Cc1ccccc1)NC(=O)[C@H](CC(N)=O)NC(=O)c1ccc2ccccc2n1 |  | rat, plasma | oral, 30 mg/kg | ~4
CC(C)=CCC[C@](C)(O[C@@H]1O[C@H](CO)[C@@H](O)[C@H](O)[C@H]1O)[C@H]1CC[C@]2(C)[C@@H]1[C@H](O)C[C@@H]1[C@@]3(C)CC[C@H](O[C@@H]4O[C@H](CO)[C@@H](O)[C@H](O)[C@H]4O[C@@H]4O[C@H](CO)[C@@H](O)[C@H](O)[C@H]4O)C(C)(C)[C@@H]3CC[C@]12C |  | Sprague-Dawley rat, plasma | oral, 2000 mg/kg ginseng extract, control diet 2 weeks before dosing | 11.2 ± 5.2
